Measured values collected from several papers.
Compare with care: the assays were run in different laboratories. Several values in a cell are separate wells, animals, samples, runs or records. ± gives the spread as reported.

Compound	target or system	assay	system	conditions	scale	quantity	result
O=c1c(-c2cnn(-c3ccc(Cl)cc3)c2)c(C(F)(F)F)oc2c(O)c(O)ccc12	ROC1-CUL1 E3 subcomplex	di-ubiquitin synthesis	–	75 µM	relative to: input	di-ubiquitin formed	61%
O=C(N/N=C/c1ccc2c(ccc[n+]2Cc2ccccc2)c1)c1cc(C(=O)N/N=C/c2ccc3c(ccc[n+]3Cc3ccccc3)c2)ncn1	22CTA telomeric G4-DNA antiparallel	FRET melting	–	1 µM, K10 buffer, DNA 0.2 µM	–	ΔTm	12.1 ± 0.8 °C
c1ccc(-c2n[nH]cc2-c2ccnc3ccccc23)nc1	CMK1 (Candida albicans)	kinase binding, MIB/MS competition	Candida albicans lysate	1 µM	relative to: DMSO	log2 fold change	-0.13
Cc1[nH]nc2c1N=C(c1ccccc1Cl)c1cnc(N3CCOCC3)cc1N2	P2Y receptor, rat	radioligand binding	–	10 µM	–	inhibition	1%
CC(C)Oc1cc(Cl)ccc1CNc1cc(-c2ccccc2)nc2ncnn12	endogenous β-adrenergic receptors	cAMP level, cAMP GloSensor	mock-transfected cells	300 nM, with: isoprenaline 30 nM	higher = more cAMP	cAMP luminescence	23200 a.u. and 28800 a.u. and 26100 a.u.
O=C(N/N=C/c1ccc2c(ccc[n+]2Cc2ccccc2)c1)C(=O)N/N=C/c1ccc2c(ccc[n+]2Cc2ccccc2)c1	22CTA telomeric G4-DNA antiparallel	FRET melting	–	1 µM, K10 buffer, DNA 0.2 µM	–	ΔTm	9.3 ± 1.5 °C
O=c1c(Oc2ccccc2)c(C(F)(F)F)oc2c(O)c(O)ccc12	ROC1-CUL1 E3 subcomplex	Cdc34-ubiquitin discharge	–	10 µM	relative to: input	Cdc34b-ubiquitin remaining	2%
Cc1cn(CC(=O)N(CC(=O)N[C@H]2COC[C@@H]2N(CC(=O)NCCOCCOCC(N)=O)C(=O)Cn2cnc3c(N)ncnc32)[C@H]2COC[C@@H]2NC(=O)CN(C(=O)Cn2cnc3c(N)ncnc32)[C@H]2COC[C@@H]2NC(=O)CN(C(=O)Cn2cnc3c(=O)[nH]c(N)nc32)[C@H]2COC[C@@H]2NC(=O)CN(C(=O)Cn2cc(C)c(=O)[nH]c2=O)[C@H]2COC[C@@H]2NC(=O)CN(C(=O)Cn2cnc3c(=O)[nH]c(N)nc32)[C@H]2COC[C@@H]2NC(=O)CN(C(=O)Cn2cc(C)c(=O)[nH]c2=O)[C@H]2COC[C@@H]2NC(=O)CN(C(=O)Cn2cnc3c(N)ncnc32)[C@H]2COC[C@@H]2NC(=O)CN(C(=O)Cn2cnc3c(=O)[nH]c(N)nc32)[C@H]2COC[C@@H]2N)c(=O)[nH]c1=O	mismatched RNA TU	duplex formation, UV melting	–	–	relative to: complementary RNA	ΔTm	-18.2 °C
Cn1ccc2cc(-n3c(=O)[nH]c4sc5c(c4c3=O)CCCC5)ccc21	NMDA receptor rat	binding, radioligand binding	–	10 µM, glutamate agonist site	–	inhibition	-10%
C[n+]1ccc(/C=N/NC(=O)N/N=C/c2cc[n+](C)cc2)cc1	22CTA telomeric G4-DNA antiparallel	FRET melting	–	1 µM, K10 buffer, DNA 0.2 µM	–	ΔTm	2.5 ± 1.7 °C
C=CC(=O)N1[C@@H](c2ccc3c(c2)OCO3)c2[nH]c3ccccc3c2C[C@H]1C(=O)N1CCN(C)CC1	human cyclin E1 N112C-3xFLAG:CDK2	co-IP with TMT proteomics, item: ELP5	–	concentration not given, Q8TE02	relative to: wild type DMSO	relative co-enrichment	65%
C[n+]1cc(/C=N/NC(=O)c2ccc3ccc4ccc(C(=O)N/N=C/c5cc6ccccc6[n+](C)c5)nc4c3n2)cc2ccccc21	22CTA telomeric G4-DNA antiparallel	FRET melting	–	1 µM, K10 buffer, DNA 0.2 µM, with: ds26 10 µM	–	ΔTm	11.6 ± 0.6 °C
O=C(NC1CCOCC1)c1ccc(C2CCCCC2)cc1	–	liver microsome stability	cynomolgus liver microsomes	1 µM	–	hepatic clearance	42 mL/min/kg
COC1CN([C@H]2CC[C@H]([C@@]3(C)Oc4c(Cl)cc(C(=O)NCc5c(SC)cc(C)[nH]c5=O)c(C)c4O3)CC2)C1	–	RNA-seq, item: LRRC2	human, whole blood	dose not given, 24 h	relative to: pretreatment baseline	log2 fold change	1.84
O=C(N/N=C/c1cc[n+](Cc2ccccc2)c2ccccc12)C(=O)N/N=C/c1cc[n+](Cc2ccccc2)c2ccccc12	22CTA telomeric G4-DNA antiparallel	FRET melting	–	1 µM, K10 buffer, DNA 0.2 µM	–	ΔTm	8.9 ± 0.9 °C
OC[C@H]1O[C@@H]2O[C@H]3[C@H](O)[C@@H](O)[C@@H](O[C@H]4[C@H](O)[C@@H](O)[C@@H](O[C@H]5[C@H](O)[C@@H](O)[C@@H](O[C@H]6[C@H](O)[C@@H](O)[C@@H](O[C@H]7[C@H](O)[C@@H](O)[C@@H](O[C@H]1[C@H](O)[C@H]2O)O[C@@H]7CO)O[C@@H]6CO)O[C@@H]5CO)O[C@@H]4CO)O[C@@H]3CO	LuxR	Escherichia coli sensor	–	100 µM	higher = stronger induction	bioluminescence induction	813 ± 92 RLU
O=C(CC(F)(F)F)Nc1ccc(C2CCCCC2)cc1	–	hepatocyte stability	cryopreserved human hepatocytes	1 µM	–	hepatic clearance	19 mL/min/kg
C=CC(=O)Nc1cccc(Cn2ncc3cnc(Nc4cnn(CCOC)c4)nc32)c1	MKK7 human	binding, KINOMEscan	–	100 nM	lower = stronger binding	percent of control	80%
O=C(CCCCCCc1ccccc1)c1ncc(-c2ccc(CBr)cn2)o1	fatty-acid amide hydrolase (mouse)	item: AEA, OEA, PEA levels	mouse, brain	i.p., dose not given	–	duration of inhibition	> 6 h
C[n+]1cccc2cc(/C=N/NC(=O)N/N=C/c3ccc4c(ccc[n+]4C)c3)ccc21	22CTA telomeric G4-DNA antiparallel	FRET melting	–	1 µM, K10 buffer, DNA 0.2 µM	–	ΔTm	5.4 ± 0.9 °C
Nc1ncc(-c2cc(-c3cnn(CC(F)(F)F)c3)ncc2F)nc1C(=O)NC1CNCC(F)C1 (stereo not drawn)	DCAMKL1	KINOMEscan	–	1 µM	relative to: DMSO control	remaining binding	76%

Repeated from above:
Compound	target or system	assay	system	conditions	scale	quantity	result
C[n+]1ccc(/C=N/NC(=O)N/N=C/c2cc[n+](C)cc2)cc1	22CTA telomeric G4-DNA antiparallel	FRET melting	–	1 µM, K10 buffer, DNA 0.2 µM	–	ΔTm	2.5 ± 1.7 °C
C=CC(=O)N1[C@@H](c2ccc3c(c2)OCO3)c2[nH]c3ccccc3c2C[C@H]1C(=O)N1CCN(C)CC1	human cyclin E1 N112C-3xFLAG:CDK2	co-IP with TMT proteomics, item: ELP5	–	concentration not given, Q8TE02	relative to: wild type DMSO	relative co-enrichment	65%
C[n+]1cc(/C=N/NC(=O)c2ccc3ccc4ccc(C(=O)N/N=C/c5cc6ccccc6[n+](C)c5)nc4c3n2)cc2ccccc21	22CTA telomeric G4-DNA antiparallel	FRET melting	–	1 µM, K10 buffer, DNA 0.2 µM, with: ds26 10 µM	–	ΔTm	11.6 ± 0.6 °C
O=C(NC1CCOCC1)c1ccc(C2CCCCC2)cc1	–	liver microsome stability	cynomolgus liver microsomes	1 µM	–	hepatic clearance	42 mL/min/kg
